{"data": "Assay results collected from several papers", "CNR1": "Cannabinoid receptor 1 (CNR1, Homo sapiens, UniProt P21554)", "note": "± marks the error that the study gave.", "UniProt P21554, sequence (whole entry, unmodified, looked up)": "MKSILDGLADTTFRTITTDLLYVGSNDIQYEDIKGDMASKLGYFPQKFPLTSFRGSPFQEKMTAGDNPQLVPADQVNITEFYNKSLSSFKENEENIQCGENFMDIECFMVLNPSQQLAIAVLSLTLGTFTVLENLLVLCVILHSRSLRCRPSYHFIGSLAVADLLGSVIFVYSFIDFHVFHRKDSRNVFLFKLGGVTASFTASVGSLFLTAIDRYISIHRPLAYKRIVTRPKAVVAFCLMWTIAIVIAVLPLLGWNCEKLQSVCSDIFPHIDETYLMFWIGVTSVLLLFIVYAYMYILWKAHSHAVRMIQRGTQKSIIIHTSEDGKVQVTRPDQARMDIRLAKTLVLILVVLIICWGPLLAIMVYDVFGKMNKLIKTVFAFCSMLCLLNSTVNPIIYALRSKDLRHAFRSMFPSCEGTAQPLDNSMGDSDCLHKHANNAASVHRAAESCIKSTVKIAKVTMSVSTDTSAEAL"}
{"Compound": "O=C(c1ccc2c(c1)c1ccccc1n2CCN1CCOCC1)c1cccc2ccccc12", "target": "CNR1", "test": "cAMP inhibition, agonist, BRET", "system": "HEK293 expressing CNR1", "setting": "added: forskolin", "scale": "relative to: forskolin alone", "quantity": "Emax", "result": "42.4%"}
{"Compound": "CCCCCn1cc(C(=O)c2ccc3ccccc3c2)c2ccccc21", "target": "CNR1 (Homo sapiens, UniProt P21554, L359V)", "test": "Gαi1 engagement, agonist, BRET", "scale": "relative to: reference agonist at wild-type CB1", "quantity": "Emax", "result": "102 ± 4.5%"}
{"Compound": "CC1=C[C@H]2c3c(O)cc(CCc4ccccc4)cc3OC(C)(C)[C@H]2CC1", "target": "CNR1", "test": "GTPγS binding, agonist, radiometric", "setting": "cell membranes", "quantity": "Emax", "result": "142%"}
{"Compound": "CC(=O)N/C(N)=N/C(=N\\S(=O)(=O)c1ccc(C(F)(F)F)cc1)N1C[C@H](c2ccccc2)C(c2ccc(Cl)cc2)=N1", "target": "CNR1", "test": "binding, [3H]CP55,940 displacement", "system": "CHO-K1 cell membranes", "scale": "relative to: CB2 over CB1", "quantity": "selectivity ratio", "result": "> 2000 fold"}
{"Compound": "CCCCCn1c2ccccc2c2cc(C(=O)c3ccncc3)ccc21", "target": "CNR1", "test": "GTPγS binding, agonist", "setting": "cell membranes", "quantity": "Emax", "result": "256%"}
{"Compound": "CCCCCn1cc(C(=O)c2cccc3c2CC(C)(C)C3)c2ccccc21", "target": "CNR1 (Homo sapiens, UniProt P21554, I267L/L193I/L359V)", "test": "Gαi1 engagement, agonist, BRET", "scale": "relative to: reference agonist at wild-type CB1", "quantity": "Emax", "result": "140 ± 2.4%"}
{"Compound": "CC(=O)OCCCCCn1c2ccccc2c2cc(C(=O)c3cccc4ccccc34)ccc21", "target": "CNR1", "test": "cAMP inhibition, agonist, BRET", "system": "HEK293 expressing CNR1", "setting": "added: forskolin", "scale": "relative to: forskolin alone", "quantity": "Emax", "result": "32.5%"}
{"Compound": "CCOC(=O)[C@](CC)(CCCSCCOCCOCCNC(=O)c1ccc(-c2c3ccc(=N)c(S(=O)(=O)O)c-3oc3c(S(=O)(=O)O)c(N)ccc23)c(C(=O)O)c1)NC(=O)c1ccc(C2CC2)c(Cc2ccc(F)cc2)n1", "target": "CNR1", "test": "cAMP, agonist", "quantity": "Emax", "result": "109%"}
{"Compound": "CCCCCn1cc(C(=O)c2ccc(OC)cc2)c2ccccc21", "target": "CNR1", "test": "binding, surface plasmon resonance", "setting": "50 µM", "quantity": "association constant", "result": "3.63e+10 M⁻¹"}
{"Compound": "O=C(c1ccc2c(c1)c1ccccc1n2CC1CCOCC1)c1cccc2ccccc12", "target": "CNR1", "test": "GTPγS binding, agonist", "setting": "cell membranes", "quantity": "Emax", "result": "216%"}
{"Compound": "CCCCCn1cc(C(=O)c2ccc(CC)c3ccccc23)c2ccccc21", "target": "CNR1", "test": "binding, surface plasmon resonance", "setting": "50 µM", "quantity": "association constant", "result": "1.05e+12 M⁻¹"}
{"Compound": "CCCCCn1cc(C(=O)c2ccc3c(c2)CC(C)(C)C3)c2ccccc21", "target": "CNR1 (Homo sapiens, UniProt P21554, L193I)", "test": "Gαi1 engagement, agonist, BRET", "scale": "relative to: reference agonist at wild-type CB1", "quantity": "Emax", "result": "56.2 ± 4.3%"}
{"note": "Repeated from above:"}
{"Compound": "CC(=O)N/C(N)=N/C(=N\\S(=O)(=O)c1ccc(C(F)(F)F)cc1)N1C[C@H](c2ccccc2)C(c2ccc(Cl)cc2)=N1", "target": "CNR1", "test": "binding, [3H]CP55,940 displacement", "system": "CHO-K1 cell membranes", "scale": "relative to: CB2 over CB1", "quantity": "selectivity ratio", "result": "> 2000 fold"}
